Measured values from different studies.
Parts stem from different laboratories: compare values within a part only.

Set 1
Target: Ras GTPase-activating protein-binding protein 1, RRM domain (G3BP1, Homo sapiens, UniProt Q13283)
Chain of UniProt Q13283 (whole entry, looked up): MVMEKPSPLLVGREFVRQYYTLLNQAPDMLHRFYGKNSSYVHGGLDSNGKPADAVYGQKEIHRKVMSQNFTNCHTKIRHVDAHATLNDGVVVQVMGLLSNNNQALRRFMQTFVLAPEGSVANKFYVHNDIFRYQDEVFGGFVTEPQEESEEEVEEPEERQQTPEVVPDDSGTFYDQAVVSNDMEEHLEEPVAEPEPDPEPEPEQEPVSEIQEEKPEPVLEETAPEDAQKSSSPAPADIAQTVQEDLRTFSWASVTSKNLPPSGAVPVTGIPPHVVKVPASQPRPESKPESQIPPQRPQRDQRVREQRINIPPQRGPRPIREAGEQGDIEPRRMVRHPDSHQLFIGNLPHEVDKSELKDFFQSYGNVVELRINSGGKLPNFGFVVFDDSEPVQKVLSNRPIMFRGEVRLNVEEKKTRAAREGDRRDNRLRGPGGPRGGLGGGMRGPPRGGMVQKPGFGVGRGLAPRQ
Technique: RNA Bind-n-Seq
Form: RNA
Medium: in vitro
Concentration: 1 µM
Setting: whole 134-nt RNA, ends assumed
Together with: 150 mM KCl
Reference: input library
Direction: higher = stronger binding
Strand | log2 enrichment
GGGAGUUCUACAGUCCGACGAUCUCCUCAAGUCCUGUGCUACACAUCGUAUGUACCGAAUCGGUGGAAAGGAGGAAAGUAUUAUGUUACGCCGUUCGGAUCUGCACUUCCAGCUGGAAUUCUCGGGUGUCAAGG | -0.159
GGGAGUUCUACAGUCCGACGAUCAGUCCUGUGCUACACAUCGUAUGUACCGAAUCGGGGUUUUGGGUUUUGGUUUUGGGGAAAGUAUUAUGUUACGCCGUUCGGAUCUGCACUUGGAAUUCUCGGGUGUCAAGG | -0.0739
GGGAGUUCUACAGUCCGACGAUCCUCAAGUCCUGUGCUACACAUCGUAUGUACCGAAUCGGGGCCGGCCGGGCCGGGAAAGUAUUAUGUUACGCCGUUCGGAUCUGCACUUCCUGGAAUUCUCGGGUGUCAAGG | -0.597
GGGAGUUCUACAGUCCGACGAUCCAAGUCCUGUGCUACACAUCGUAUGUACCGAAUCGGAAAAGGAAAAGGGAAAAGGGAAAGUAUUAUGUUACGCCGUUCGGAUCUGCACUUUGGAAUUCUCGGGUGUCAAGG | -0.227
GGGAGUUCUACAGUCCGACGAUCUCUCCACCUGCUGAGCUCCCCAGUUUGAGGCGGAGCACACGCCAAAAGACCACGGGCUCCUGUGCUAGUACCAGGUAAUUUGUUUUUUUUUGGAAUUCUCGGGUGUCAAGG | -0.11
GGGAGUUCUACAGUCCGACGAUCUGGGAGGUGGAUUUUGUUUAUUUUUUUAGCUCAUUUCCAGGGGUGGGAAUUUUUUUUUAAUAUGUGUCAGGAAUAAAGUUGUUUUUGAAAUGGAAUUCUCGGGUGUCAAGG | 1.92
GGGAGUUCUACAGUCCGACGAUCCACAGACAACACGCACCCACACAGACACAGAGGGAAGGGGUUGGGAUGGGGACAGGGUGCACAGCAGGGCGGGGUAGGACCCCUGCCCCUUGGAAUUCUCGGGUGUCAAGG | -0.407
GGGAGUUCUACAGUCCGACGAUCACCAUGCAGGUGGGCAUCUUUGGGAAGUGGGGCAAGGGGGGGAUAGGGAGGGGGGUAACACUUUAAAAACAGGUGGUCCCAGGUCGUUUCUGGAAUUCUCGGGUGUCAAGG | -0.472
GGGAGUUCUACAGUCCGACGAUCGCAGGAAGUAAAAACAAAUGGAAAUGCUUCGGAUAGUGGCAGGGGUGGGGGUUGCUAAGGAAAGGGUGGGAUGGGAGUGGAAAAAGAGUUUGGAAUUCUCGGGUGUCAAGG | 1.14
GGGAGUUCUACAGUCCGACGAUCAGUCCUGUGCUACACAUCGUAUGUACCGAAUCGGCCCCCGGGCCCCCGGGCCCCCGGGAAAGUAUUAUGUUACGCCGUUCGGAUCUGCACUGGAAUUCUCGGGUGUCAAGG | -0.66
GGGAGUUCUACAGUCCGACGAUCCCUCAAGUCCUGUGCUACACAUCGUAUGUACCGAAUCGGGCGGGGCGGCGGGGAAAGUAUUAUGUUACGCCGUUCGGAUCUGCACUUCCAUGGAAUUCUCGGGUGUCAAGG | -0.0482

Set 2
Target: Phosphate system positive regulatory protein PHO4, full length, GST-tagged (PHO4, Saccharomyces cerevisiae, UniProt P07270, residues 1-312)
Technique: competition protein-binding microarray
Form: double-stranded DNA, one strand shown
Medium: in vitro
Concentration: 2 µM
Setting: whole 60-bp probe, lowest competitor level
Together with: Cbf1 competitor, 0.05 µM
Direction: higher = stronger binding
Residues (chain): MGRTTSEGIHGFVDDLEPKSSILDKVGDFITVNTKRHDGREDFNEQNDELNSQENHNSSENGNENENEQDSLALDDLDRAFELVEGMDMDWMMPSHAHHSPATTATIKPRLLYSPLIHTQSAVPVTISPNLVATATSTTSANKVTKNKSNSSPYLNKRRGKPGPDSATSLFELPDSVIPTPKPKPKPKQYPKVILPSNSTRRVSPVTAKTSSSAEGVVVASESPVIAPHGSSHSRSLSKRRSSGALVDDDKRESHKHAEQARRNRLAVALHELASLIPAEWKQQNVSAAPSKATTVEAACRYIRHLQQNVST
Strand | fluorescence intensity
CTTTCCCGATCTTGAAAAGTGGGTGTAGCACATTTGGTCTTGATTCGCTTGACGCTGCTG | 4060 a.u.
TGATGAGGACACCGACACGTGCAAACATGGTAGTGCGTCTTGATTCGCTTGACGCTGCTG | 18800 a.u.
TACTGACAAGATCGGCACGTTCGCCTAACCTGCGGTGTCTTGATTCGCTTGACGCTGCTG | 13700 a.u.
CTTTTGGGCGGCCATCACGCAGATGTGGTGTTTGAGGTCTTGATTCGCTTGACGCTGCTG | 6560 a.u.
GTCTTGTCTCATTAGCACGTGTTTTTCCCCACTTCAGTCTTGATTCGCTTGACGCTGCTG | 16200 a.u.
TTCCATCTGGGGACCCACATGTGTGGGTTTGGATTGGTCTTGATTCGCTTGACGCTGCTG | 13200 a.u.
AAATTACTAAGTTATCACGTGTTTTACCCCGTATGAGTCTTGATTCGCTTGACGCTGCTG | 17100 a.u.
AAAGAACCGTTTTAGCACGTGTTGATTGTCCATTTAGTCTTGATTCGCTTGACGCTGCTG | 19300 a.u.
AGTCTCCTTTGCTCTTTCGTGATGGACCCACCGTATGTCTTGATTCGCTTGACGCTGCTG | 3420 a.u.
TACAAATTGCCCGTCCACGTTCGTCGTTCTAACTTCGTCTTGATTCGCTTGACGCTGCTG | 10800 a.u.
AGTGATCTTATCTTCCACATGTCCTTGGCCACTGGCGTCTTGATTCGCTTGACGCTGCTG | 7840 a.u.
ACCCGGGTGTCGTTATGCGTGATGGGCATCAATTTTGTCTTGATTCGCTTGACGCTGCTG | 5610 a.u.
AAATTACTAAGTTGTCACGAGACTTACCCCGTATGAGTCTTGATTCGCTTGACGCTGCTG | 6750 a.u.
CTAACGAAGGTTTGTCCAGTGGGTGACAAGCCAAGTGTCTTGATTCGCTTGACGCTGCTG | 3250 a.u.
CTTTCAAATGTGGGTGACGTGCTAACTTGGGGCTTGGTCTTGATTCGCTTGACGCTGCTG | 6870 a.u.
TCAATAAATAATGCTCGCGTGGCCGAATGGCAACGCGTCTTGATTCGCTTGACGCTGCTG | 8920 a.u.

Set 3
Target: Prothrombin, mature alpha-thrombin (F2, Homo sapiens, UniProt P00734)
Technique: aptamer microarray, sandwich
Form: DNA with 2'F-ANA
Medium: in vitro
Concentration: 200 nM
Setting: whole 15-mer aptamer, many near background
Together with: Cy3 exosite-II aptamer, 400 nM
Direction: higher = stronger binding
Strand: GGTTGGTGTGGTTGG
Modification | mean fluorescence intensity [a.u.]
2'F-ANA at 1 4 6 8 10 11 12 | 78.8
2'F-ANA at 2 5 6 9 13 15 | 50.1
2'F-ANA at 3 5 6 7 8 10 11 12 13 14 15 | 57.5
2'F-ANA at 1 2 4 8 12 13 14 15 | 58.8
2'F-ANA at 2 3 4 6 7 8 10 12 14 15 | 169
2'F-ANA at 1 2 6 9 10 11 12 13 | 59.6
2'F-ANA at 1 2 4 6 7 8 11 14 | 54.2
2'F-ANA at 2 4 7 8 9 10 12 15 | 140
2'F-ANA at 1 3 7 10 13 15 | 79.5
2'F-ANA at 2 3 4 5 6 8 10 13 15 | 49.9
2'F-ANA at 2 5 6 10 11 14 | 55.7
2'F-ANA at 3 4 5 7 9 10 11 12 13 | 60.7
2'F-ANA at 2 7 8 9 10 11 12 13 14 | 83.4
2'F-ANA at 1 5 10 11 12 15 | 49.7

Set 4
Target: RNA binding protein fox-1 homolog 2, RRM domain, GST-SBP tag (RBFOX2, Homo sapiens, UniProt O43251-10, residues 100-194)
Technique: RNA Bind-n-Seq
Form: RNA
Medium: in vitro
Concentration: 365 nM
Setting: natural RNA segment, single round, ends assumed
Reference: no-protein control
Direction: higher = stronger binding
Construct (chain): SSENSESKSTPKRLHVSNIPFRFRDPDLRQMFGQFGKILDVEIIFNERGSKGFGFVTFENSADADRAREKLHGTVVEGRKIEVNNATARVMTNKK
Strand | RBNS enrichment (R)
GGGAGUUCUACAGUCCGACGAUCUCUUGUGUGUGCGUUAGACUUGAUGAGAAGGUGUGAACUCUGCAGAAAGUCUCUUCUUCAUCACUGAAUUCAGUCACUUGGAGAUGACAACUUCAAAUGCUAACCCGAUGUGGAAUUCUCGGGUGCCAA | 0.641
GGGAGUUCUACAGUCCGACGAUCUGUUACAGCUUCCCCUAGAUUACAUAGCUCUGCUGUUGUCCAUUGUUUCAAAUAAAUGUUCUGUAGCAUUCCCACAUAGAGAAAAAGAGUGCUUUCUGUUUUUGUCAGAAUGGAAUUCUCGGGUGCCAA | 0.635
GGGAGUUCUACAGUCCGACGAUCCUCCUGUGCCCAUUUUAUAAUACCUCGCCAAGCUUGGGUCUUUAGAUGAGCAAGAUUAUGGUUAGUGGGGGCUCUGUGGAGCAUGCACGUAGUGCCCUUCCUUCAUCAGGUGGAAUUCUCGGGUGCCAA | 7.74
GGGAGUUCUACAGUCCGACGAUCAUUUAUUCAGGCUAAACCUACAAUAUGUGAAUCAACCCGUUUAAUGAAUCCUGGGACAUGCUGAUGACUGUAAACUGGCCUUUCCGAGUCAUAGAAAAAAAAAAGAUGGCUGGAAUUCUCGGGUGCCAA | 0.503
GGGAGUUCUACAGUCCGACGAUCGGACCCUUCUCAGCCUGUACCAAGUACUGCAGCUCAGUGUCAUGAGCAUCCUUUGGAGCAGGUCAACCUGAGGCUCCUUUGGCUUACAUCUAAGUUGUCCAGGUGCUCAGUGGAAUUCUCGGGUGCCAA | 0.318
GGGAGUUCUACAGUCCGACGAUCGGGAAGCUUUUCCUCUCUCUAAUUAGCUUUCCCAGUAUACUUCUUAGAAAGUCCAAGUGUUCAGGACUUUUAUACCUGUUAUACUUUGGCUUGGUUUCCAUGAUUCUUACUGGAAUUCUCGGGUGCCAA | 0.354
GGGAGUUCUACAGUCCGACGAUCCCCCAUUGUAGUCAGGUUCCCAGGAUGGAGACAGUGCUCCUGGGGUGGCCACUCAGUGAGGAGGCUCUCUGGGGUCCAGUGUUUGGAAGAGGAGGAAAGGGGACCAAAGGUGGAAUUCUCGGGUGCCAA | 0.397
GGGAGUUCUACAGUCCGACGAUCGCCAUCAUCUCAUAAAAGGAAUUCAGAAGGUGCUGGUUUAGGUUUAGUGGGAAAACGACUUCUGUUUUGACAUGUAGAGUUUGAAGAUUAGGAGAUUGACAGAUGAUGUUUGGAAUUCUCGGGUGCCAA | 3.17
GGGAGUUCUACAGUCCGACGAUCCCCAAAUCUUAAUUUUUCUCUUUUUUUUCUUUGGCUUUGGGAACGGCAUAAUUUUACACCAUUUUACCAAACAUACUGAGAACGAAAACUUCAAGGAUGAUGUUAGAAAAUGGAAUUCUCGGGUGCCAA | 0.79

Excerpt of the above (set 3):
Modification | mean fluorescence intensity [a.u.]
2'F-ANA at 1 4 6 8 10 11 12 | 78.8
2'F-ANA at 2 5 6 9 13 15 | 50.1
2'F-ANA at 3 5 6 7 8 10 11 12 13 14 15 | 57.5
2'F-ANA at 1 2 4 8 12 13 14 15 | 58.8
2'F-ANA at 2 3 4 6 7 8 10 12 14 15 | 169
2'F-ANA at 1 2 6 9 10 11 12 13 | 59.6
2'F-ANA at 1 2 4 6 7 8 11 14 | 54.2
